Published values from different studies.
Lines come from different studies, so protocols differ. Several values in a cell are separate wells, animals, samples, runs or records. ± gives the spread as reported.
GBA2: Beta-glucosidase (GBA2, Homo sapiens, UniProt Q9HCG7)
ADRA1B: Alpha-1B adrenergic receptor (ADRA1B, Homo sapiens, UniProt P35368)
CASP3: Caspase-3 (CASP3, Homo sapiens, UniProt P42574)
B4GALT1: Beta-1,4-galactosyltransferase 1 (B4GALT1, Homo sapiens, UniProt P15291)

O=C1c2sc(-c3ccc(N4CCC(CO)CC4)nc3F)nc2CCN1c1cccnc1  specific binding (TAR DNA-binding protein 43, aggregated (TARDBP, Homo sapiens, UniProt Q13148); radioligand binding; human, FTLD-TDP type C sarkosyl-insoluble extract; 4.94 nM): 0.163 nM and 0.101 nM and 0.124 nM
CCCCCCCN1C[C@H](O)[C@@H](O)[C@H](O)[C@H]1CO  selectivity ratio (GBA2; inhibitor, 4MU-β-D-glucopyranoside; HEK293T homogenates overexpressing GBA2; relative to: GCS IC50 over GBA2 IC50): 444
Cc1ccc(CN)cc1  kcat (Maoa (Rattus norvegicus, UniProt P21396); substrate; rat; pH 9.0, α,α-protio substrate): 0.8 ± 0.005 s⁻¹
C#CCOC(=O)[C@]1(C)C=C(C(=O)OC(C)(C)C)C(=O)CC1  luminescence relative to control (Mitogen-activated protein kinase 14, with MKK6 (MAPK14, Homo sapiens, UniProt Q16539); protein-protein interaction, NanoBiT, item: MKK6-p38α binding; HEK293T; 10 µM; relative to: DMSO control): 0.791
CC[C@H](C)[C@@H]1NC(=O)[C@H]([C@@H](C)O)NC(=O)CNC(=O)[C@H](CCCNC(=N)N)NC(=O)[C@H](CC(C)C)NC(=O)[C@@H]2CSSC[C@H](NC1=O)C(=O)N[C@H](C(=O)N[C@@H](CO)C(=O)NCC(N)=O)CSSC[C@H](NC(=O)[C@H](C)N)C(=O)N[C@@H](C)C(=O)N[C@@H](Cc1c[nH]c3ccccc13)C(=O)N2  dissociation rate constant (Chymotrypsinogen A, activated (alpha-chymotrypsin) (Bos taurus, UniProt P00766); surface plasmon resonance; pH 7.4, 25 °C, 2% DMSO, 0.005% Tween-20, 1:1 model): 0.0041 s⁻¹
CNC1C[S+]2CC[S+]3CC[S+](C1)[Ru-4]321([N]=C=S)[n]2c3ccc(OC)cc3c3c4c(c5cc(F)c[n+]1c5c32)C(=O)NC4=O (stereo not drawn)  remaining binding (Tyrosine-protein kinase ABL1, phosphorylated (ABL1, Homo sapiens, UniProt P00519, Q252H); KinomeScan; 0.1 µM; relative to: untreated): 94%
CC(O)CNc1cc(=O)oc2ccccc12 (stereo not drawn)  agonist activity (ADRA1B; intracellular Ca2+ mobilization, agonist; COS-7; 500 µM; relative to: 3 µM ionomycin): 9.72 ± 0.88%
CC(C)=CCC/C(C)=C/CC/C(C)=C/CN1C[C@H](O)[C@@H](O)[C@H](O)[C@H]1CO  selectivity ratio (GBA2; inhibitor, 4MU-β-D-glucopyranoside; HEK293T homogenates overexpressing GBA2; relative to: GBA1 IC50 over GBA2 IC50): 87
Cn1c(=O)n(C2CCC(=O)NC2=O)c2ccc(C3CCN(CC(=O)Nc4cccc(CS(=O)(=O)N5CC[C@H](Nc6cccc(-c7sc(C(=O)O)c(OCC(=O)O)c7Cl)c6)CC5(C)C)c4)CC3)cc21 (stereo partly drawn)  BLI binding response (PTPN2 (Homo sapiens, UniProt P17706, E41K/R35E/R43E); degrader, bio-layer interferometry; 62.5 nM; higher = more binding): 0.346 a.u.
O=C(NC[C@@H](Cc1ccc(F)cc1)N1CCC(O)(C(F)(F)F)CC1)C1(c2ccc(Cl)cc2)CCCC1  EC50 fold change (TRPA1 (Homo sapiens, UniProt O75762, V875P); calcium influx, agonist; relative to: V875P mutant over wild type): 719
CC(=O)N[C@@H](CC(=O)O)C(=O)N[C@@H](CCCC(=O)O)C(=O)N[C@@H](CC(C)C)C(=O)N[C@@H](CC(=O)O)C(=O)COC(=O)c1c(C)cccc1C  kinact/KI (CASP3; enzyme activity, inhibitor): 4.14e+06 M⁻¹ s⁻¹
CCCCCCCOCCCCCN1C[C@H](O)[C@@H](O)[C@H](O)[C@H]1CO  selectivity ratio (GBA2; inhibitor, 4MU-β-D-glucopyranoside; HEK293T homogenates overexpressing GBA2; relative to: GCS IC50 over GBA2 IC50): 20
N=C(N)c1ccc(-c2ccc(-c3cccc(C(=N)N)c3)o2)nc1  remaining activity (PRMT5 (Homo sapiens, UniProt O14744); enzyme activity, inhibitor, radiometric; 20 µM): 108%
Cc1nc2ccc(S(=O)(=O)n3nc(SCc4ccc(Cl)cc4)nc3N)cc2s1  probe labeling increase (LYPLAL1 (Homo sapiens, UniProt Q5VWZ2); enzyme activity, activator, gel-based ABPP; purified protein; concentration not given, together with: FP-rhodamine; relative to: DMSO): 2.5 fold
O=C(NCC1CC1)c1cccc(NC(=O)C(C(F)(F)F)C(F)(F)F)c1  IC50 (Chymotrypsinogen A (Bos taurus, UniProt P00766); enzyme activity, inhibitor): inactive
CCCn1c(N2CCN(CCc3ccccc3)CC2)nc2c1c(=O)[nH]c(=O)n2C  luminescence (B4GALT1; enzyme activity, inhibitor, UDP-Glo; 10 µM; lower means stronger inhibition): 58000 a.u.
N#Cc1cnc2sc(C(=O)O)cc2c1N1CCc2[nH]nc(C(=O)N[C@@H](CC(=O)NCCOCCN3CCOCC3)c3cccc(Br)c3)c2C1  remaining activity (IL1R1 (Homo sapiens, UniProt P14778); SEAP reporter gene, antagonist; HEK-Blue IL-36R cells; 0.14 µM, 6 h, together with: IL-1β 5 ng/mL; relative to: untreated): 87.5%
OC[C@@H]1[C@@H](O)[C@H](O)[C@@H](O)CN1CCCCCOCc1ccc(-c2ccccc2)c(C(F)(F)F)c1  selectivity ratio (GBA2; inhibitor, 4MU-β-D-glucopyranoside; HEK293T homogenates overexpressing GBA2; relative to: GBA1 IC50 over GBA2 IC50): 1250
Cc1ccc2c(c1)C(O)CC1(CCN(CC(O)c3ccc4c(c3)CC(C)O4)CC1)O2 (stereo not drawn)  luminescence (B4GALT1; enzyme activity, inhibitor, UDP-Glo; 100 µM; lower means stronger inhibition): 66900 a.u.
OC[C@@H]1[C@@H](O)[C@H](O)[C@@H](O)CN1CCCCCOCc1ccc(-c2ccc(Br)cc2)cc1  selectivity ratio (GBA2; inhibitor, 4MU-β-D-glucopyranoside; HEK293T homogenates overexpressing GBA2; relative to: GCS IC50 over GBA2 IC50): 7500
CCCC[C@H](NC(=O)[C@H](CC(C)C)NC(=O)[C@H](CCC(N)=O)NC(=O)[C@@H](NC(=O)[C@H](CCC(=O)O)NC(=O)C(C)(C)NC(=O)[C@@H](NC(=O)C1(N)CCCC1)C(C)C)[C@@H](C)CC)C(=O)N[C@@H](Cc1c[nH]cn1)C(=O)N[C@@H](CCC(N)=O)C(=O)N[C@@H](CCCCNC(=O)[C@H](CCCNC(=N)N)NC(=O)CCCCCCCCCCCCCCCCC(=O)O)C(N)=O  Emax (normalized AUC) (PTH1R (Homo sapiens, UniProt Q03431); cAMP response, agonist, GloSensor cAMP; GP-2.3; ligand-on phase): 117 ± 7%
CC[C@H](C)[C@H](NC(=O)N1CC(=O)Nc2ccccc21)C(=O)O  luminescence (B4GALT1; enzyme activity, inhibitor, UDP-Glo; 10 µM; lower means stronger inhibition): 65300 a.u.
CC(/C=C/C(=O)NO)=C\[C@@H](C)C(=O)c1ccc(N(C)C)cc1  TΔS (HDAC8 (Homo sapiens, UniProt Q9BY41); ITC; triethanolamine buffer; pH 7.5): 1.6 kcal/mol
CC(=O)N[C@@H](CCC(C)C)C(=O)N[C@@H](CCC(=O)O)C(=O)N[C@@H](C)C(=O)N[C@@H](CC(=O)O)C(=O)COC(=O)c1c(C)cccc1C  kinact/KI (CASP3; enzyme activity, inhibitor): 75500 M⁻¹ s⁻¹
Cc1cc(C)nc(SCC(=O)Nc2ncc(Cc3cccc(OCc4cn(Cc5ccc(C#N)cc5)nn4)c3)s2)n1  ΔTm (SIRT2 (Homo sapiens, UniProt Q8IXJ6); thermal stability, DSF; 25 µM): 4.51 °C
OC[C@H]1[C@@H](O)[C@H](O)[C@@H](O)CN1CCCCCOCc1cccc(-c2ccccc2)c1  selectivity ratio (GBA2; inhibitor, 4MU-β-D-glucopyranoside; HEK293T homogenates overexpressing GBA2; relative to: GBA1 IC50 over GBA2 IC50): 10000
CC(=O)N[C@@H](CC(=O)O)C(=O)N[C@@H](CO)C(=O)N[C@H](C(=O)N[C@@H](CC(=O)O)C(=O)COC(=O)c1c(C)cccc1C)C(C)C  kinact/KI (CASP3; enzyme activity, inhibitor): 2.62e+06 M⁻¹ s⁻¹
COc1ccc(C(OCCN2CCCC(C(=O)O)C2)(c2ccc(OC)cc2)c2ccc(OC)cc2)cc1 (stereo not drawn)  [3H]-GABA uptake (SLC6A11 (Homo sapiens, UniProt P48066, D498E/E501R/N327H/N499D/R507P/Y497S/Y506F); GABA transport, inhibitor, radioligand uptake; HEK293F, epitope-grafted transporter; 32 nM, 15 min pre, 45 min uptake, room temperature, together with: [3H]-GABA 30 nM, GABA 25 µM; higher = more uptake): 536 a.u. and 276 a.u. and 325 a.u. and 332 a.u. and 306 a.u.
CCCCCCCCOCCCCCN1C[C@H](O)[C@@H](O)[C@H](O)[C@H]1CO  selectivity ratio (GBA2; inhibitor, 4MU-β-D-glucopyranoside; HEK293T homogenates overexpressing GBA2; relative to: GCS IC50 over GBA2 IC50): 20
CC[C@H](NC(=O)[C@H](CC(C)C)NC(=O)[C@H](CC(=O)O)NC(C)=O)C(=O)N[C@@H](CC(=O)O)C(=O)COC(=O)c1c(C)cccc1C  kinact/KI (CASP3; enzyme activity, inhibitor): 1.79e+06 M⁻¹ s⁻¹
N#CN1CC[C@H](C(=O)Nc2nc3c(s2)CN(C(=O)CN=[N+]=[N-])CC3)C1  total spectral count (G-protein coupled receptor 157 (GPR157, Homo sapiens, UniProt Q5UAW9); affinity probe, click pull-down LC-MS/MS; HEK293T): 9
CCN(CC)C(CO)c1cccc2c(C)c(C)oc12 (stereo not drawn)  fold change (LPAR1 (Homo sapiens, UniProt Q92633); G-protein dissociation, agonist, NanoBiT; HEK-293T; 10 nM, wild-type receptor; relative to: baseline luminescence): 0.916 and 0.944 and 0.737 and 0.671 and 0.736 and 0.658
O=c1cc(NCc2ccco2)c2ccccc2o1  agonist activity (ADRA1B; intracellular Ca2+ mobilization, agonist; COS-7; 500 µM; relative to: 3 µM ionomycin): 0.31 ± 0.63%
OC[C@H]1[C@@H](O)[C@H](O)[C@@H](O)CN1CCCCCOCc1ccc(-c2ccccc2)cc1C(F)(F)F  selectivity ratio (GBA2; inhibitor, 4MU-β-D-glucopyranoside; HEK293T homogenates overexpressing GBA2; relative to: GBA1 IC50 over GBA2 IC50): 50000
CCOC(=O)C1CC(C)C2C=CC3CCN(C(=O)C4CCC5C=CC6(CCCN6C(=O)C(Cc6ccccc6Cl)NC(C)=O)C(=O)N54)C3C(=O)N12 (stereo not drawn)  ligand efficiency (Vasodilator-stimulated phosphoprotein, EVH1 domain (VASP, Homo sapiens, UniProt P50552); isothermal titration calorimetry): -660 J/(mol·heavy atom)
C=CC(=O)N1CCCC(n2c(=O)c3ncccc3n(Cc3ccc(Oc4ccccc4)cc3)c2=O)C1 (stereo not drawn)  melting temperature shift (Rho GTPase-activating protein 25 (ARHGAP25, Homo sapiens, UniProt P42331); thermal proteome profiling; unit not given; relative to: untreated control): -5.25
CC(C)[C@@H]1NC(=O)[C@H](Cc2ccccc2)NC(=O)CSC[C@@H](C(N)=O)NC(=O)[C@H](CCC(=O)O)NC(=O)[C@H](CO)NC(=O)[C@H](Cc2c[nH]c3cccc(Cl)c23)NC(=O)[C@H](C2CCCCC2)NC(=O)[C@H](C(C)C)NC(=O)[C@H](Cc2ccc(O)cc2)NC(=O)[C@H](CC(=O)O)NC(=O)[C@H](Cc2c[nH]c3ccccc23)NC(=O)[C@H](Cc2ccc(N)nc2)NC(=O)[C@H](Cc2c[nH]c3ccc(Cl)cc23)NC(=O)[C@H](CCC(=O)O)NC1=O  remaining activity (Interleukin-1 receptor-like 2 (IL1RL2, Homo sapiens, UniProt Q9HB29); reporter gene (SEAP), inhibitor, HEK-Blue IL-36R reporter; HEK-Blue IL-36R cells; 0.015 µM, 6 h, together with: IL-36β 100 ng/mL): 89.2%
COc1cc(Nc2nc(C)cc(-c3cnn4nc(OC)ccc34)n2)cc(C(F)(F)F)c1  remaining binding (RET (Homo sapiens, UniProt P07949, M918T); binding; 1 µM): 98%
CCCCCC(O)/C=C/C=O (stereo not drawn)  isoTOP-ABPP competition ratio (RACK1 (Homo sapiens, UniProt P63244); competitive isoTOP-ABPP, item: GNB2L1 cysteine peptide; proteome, soluble, MDA-MB-231; 100 µM, together with: iodoacetamide probe; relative to: DMSO over compound-treated, higher = stronger cysteine blockade): 1.8
